Published values gathered from unrelated publications.
Every numbered part comes from another study and shows a few of its results, in no order. Changes are numbered by the printed parent chain.

Series 1 — method: DHFR PCA, deep sequencing; matrix: yeast; together with: (+)-ABA 58 µM; reference: wild-type fitted maximum; reading: higher = stronger binding; quantity: relative binding score
Target: ABI1, truncated, D143A, DHFR fusion (Arabidopsis thaliana)
Notes: methotrexate growth selection, single substitutions
Starting sequence: PYL1, truncated, DHFR fusion (Arabidopsis thaliana); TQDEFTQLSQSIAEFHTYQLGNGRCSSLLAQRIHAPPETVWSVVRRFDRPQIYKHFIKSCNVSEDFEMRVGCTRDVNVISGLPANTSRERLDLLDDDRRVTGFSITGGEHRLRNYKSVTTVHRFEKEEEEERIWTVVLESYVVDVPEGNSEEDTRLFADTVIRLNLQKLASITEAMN
Variant = D95M; result = 56.6%
Variant = S9Q; result = 93.4%
Variant = A84T; result = 14.1%
Variant = N165P; result = 3.64%
Variant = D75R; result = 82.1%
Variant = L156H; result = 75.3%
Variant = H34V; result = 74.5%

Series 2 — method: RNA Bind-n-Seq; molecule type: RNA; matrix: in vitro; tested at: 1 µM; notes: whole 134-nt RNA, ends assumed; together with: 150 mM KCl; reference: input library; reading: higher = stronger binding; quantity: log2 enrichment
Target: Ras GTPase-activating protein-binding protein 1, RRM domain (G3BP1, Homo sapiens, UniProt Q13283)
UniProt Q13283, sequence (whole entry, looked up): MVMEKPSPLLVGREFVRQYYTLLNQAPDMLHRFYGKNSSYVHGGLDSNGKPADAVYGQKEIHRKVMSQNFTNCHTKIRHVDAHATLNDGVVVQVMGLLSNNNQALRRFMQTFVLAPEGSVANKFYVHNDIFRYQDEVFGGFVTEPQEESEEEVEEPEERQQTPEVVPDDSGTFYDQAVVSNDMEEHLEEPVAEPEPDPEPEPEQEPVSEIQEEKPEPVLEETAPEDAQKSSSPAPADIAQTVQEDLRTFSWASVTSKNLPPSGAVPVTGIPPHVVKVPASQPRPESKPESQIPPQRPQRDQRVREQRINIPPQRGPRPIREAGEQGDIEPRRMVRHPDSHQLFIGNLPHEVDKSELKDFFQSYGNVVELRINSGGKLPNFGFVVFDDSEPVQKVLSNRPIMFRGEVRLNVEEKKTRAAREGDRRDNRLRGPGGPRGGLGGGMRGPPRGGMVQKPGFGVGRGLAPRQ
Shared flanks, not repeated: GGGAGUUCUACAGUCCGACGAUC … UGGAAUUCUCGGGUGUCAAGG
Sequence = AAAAAAAGUGUGUAUUAGGAGGAGAGAGAGGAAAAAAAGAGGAAAGAAGGAAAAAAAAAAGAAUUAAAAAAAAAAAAAAGAAAAACAGAA; result = -0.0836
Sequence = UGUGACAGGAGAGCGCUUGAAGAGCAAUGUGACGAGGACCAUCAGACACCGAGGGAUGGAGAGACAUCCCACAGGGCCCAGAUUCAGCAG; result = -0.0962
Sequence = UAUCUUAUCUACACAUGGGGGACUGAAGAGUUCGAGAGAUCCAAGAGGAAGAAUCCAGCUGCCUAUGAAAAUGACAAAUGAGCAACGCAU; result = -0.00314
Sequence = GGCUGCUGGAGUGCCGUGAGCAGGCCGCGGGAACGUCGCCGUCACCUUGUCUCGGGGCCUCGGCGCUGCUUCCCGCCAAAACACGUUUAC; result = -0.63
Sequence = CACAGACAACACGCACCCACACAGAUACAGAGGGAAGGGGUUGGGAUGGGGACAGGGUGCACAGCAGGGCGGGGUAGGACCCCAGCCCCU; result = -0.00682
Sequence = GCAGGAAGUAAAAACAAAUGGAAAUGCUUCGGAUAGUGGCAGCGGUGGGGGUUGCUAAGGAAAGGGUGGGAUGGGAGUGGGUAAAGAGUU; result = 0.866

Series 3 — target: CCND3, cyclin fold, Cln2 fusion (human); method: yeast growth competition, sequencing; matrix: yeast; notes: weak parent motif; reference: not given; reading: higher = stronger binding; quantity: normalised enrichment score
Starting sequence: MASTL docking peptide (human); PMIAKNLMCELDE; partner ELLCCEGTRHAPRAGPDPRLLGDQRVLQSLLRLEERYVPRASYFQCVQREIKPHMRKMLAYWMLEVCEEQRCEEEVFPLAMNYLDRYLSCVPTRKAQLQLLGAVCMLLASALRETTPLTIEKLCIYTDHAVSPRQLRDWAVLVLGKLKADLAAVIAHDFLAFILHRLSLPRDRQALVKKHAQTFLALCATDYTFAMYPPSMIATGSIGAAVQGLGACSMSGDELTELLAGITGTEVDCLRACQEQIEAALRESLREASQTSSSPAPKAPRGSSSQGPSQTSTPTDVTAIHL
Variant = PMIAKNLMCDLDE [E10D]; result = -0.169
Variant = PMIAKNLMCNLDE [E10N]; result = 0.219
Variant = PMIVKNLMCELDE [A4V]; result = -0.0517
Variant = PMIAKNLMVELDE [C9V]; result = 0.0191
Variant = PMIAKNLFCELDE [M8F]; result = -0.303
Variant = PMIAKNLMCELHE [D12H]; result = 0.0502
Variant = PMIAKNWMCELDE [L7W]; result = 0.0571
Variant = PMIAKNLACELDE [M8A]; result = -0.000935
Variant = PMIAKELMCELDE [N6E]; result = -0.0903
Variant = PPIAKNLMCELDE [M2P]; result = -0.105

Other studies, line by line
Molecule = PhoQ, residues 284 288 289 292 302 303 TNSAEL; target = PhoP, residues 12 14 15 18 19 LHTVM (Escherichia coli, UniProt P23836); test = Sort-seq, item: YFP reporter; system = E. coli; conditions = PhoQ-PhoP variant library, together with: 10 µM Mg2+; how to read = reference: high Mg2+ state, higher = stronger signaling; quantity = fold induction; result = 1.48

Excerpt of the above (series 1):
Variant = D95M; result = 56.6%
